{"data": "Measured values pooled from the literature", "note": "Compare with care: the assays were run in different laboratories. “And” joins repeats or separate records; there may be more than shown. Numbers after ± are the reported error."}
{"SMILES": "CC(C)CC(C(=O)N1CC2(CC1C#N)C(=O)Nc1ccccc12)N(C)C(=O)c1cc2c(F)cc(F)c(F)c2[nH]1 (stereo not shown)", "organism": "pangolin coronavirus", "test": "viral replication", "conditions": "3 µM", "endpoint": "inhibition", "value": "100%"}
{"SMILES": "NC(=O)c1ncn(C2OC(CO)C(O)C2O)c1C(N)=O (stereo not shown)", "organism": "Mammarenavirus lassaense", "test": "viral replication", "system": "Vero", "conditions": "48 h", "endpoint": "IC90", "value": "> 50 µg/mL"}
{"SMILES": "Oc1c(Br)ccc2cccnc12", "organism": "Shigella dysenteriae", "test": "microbial growth, agar dilution", "endpoint": "MIC", "value": "35.7 µM"}
{"SMILES": "COC(=O)CC1C2CCCN3CCCC(CN1Cc1ccc(Cl)cc1)C23.Cl.Cl (stereo not shown)", "organism": "Ebola virus", "conditions": "EBOV GP pseudotyped HIV", "how to read": "relative to: CC50 over IC50", "endpoint": "selectivity index", "value": "> 7.12"}
{"SMILES": "[O-][N+]1=C(c2ccccc2)C2=NCCCN2c2ncccc21", "organism": "Clostridium perfringens", "endpoint": "MIC", "value": "0.25 to 1 µg/mL"}
{"SMILES": "CC[C@H](C)[C@H](NC(C)=O)C(=O)N[C@@H](CO)C(=O)NCC(=O)N[C@H](C(=O)N[C@@H](CC(N)=O)C(=O)N[C@@H](C)C(=O)N[C@@H](CO)C(=O)N[C@H](C(=O)N[C@H](C(=O)N[C@@H](CCC(=O)O)C(=O)N[C@H](C(=O)N[C@@H](CCC(N)=O)C(=O)N[C@@H](CCCCN)C(=O)N[C@@H](CCC(=O)O)C(=O)N[C@H](C(=O)N[C@@H](CCC(=O)O)C(=O)N[C@@H](CCCNC(=N)N)C(=O)N[C@@H](CC(C)C)C(=O)N[C@@H](CC(N)=O)C(=O)N[C@@H](CCCCN)C(=O)N[C@H](C(=O)N[C@@H](C)C(=O)N[C@@H](CCCCN)C(=O)N[C@@H](CCC(=O)O)C(=O)N[C@@H](CC(C)C)C(=O)N[C@@H](CC(N)=O)C(=O)N[C@@H](CCCCN)C(=O)N[C@@H](CO)C(=O)N[C@@H](CC(C)C)C(=O)N[C@H](C(=O)N[C@@H](CC(=O)O)C(=O)N[C@@H](CC(C)C)C(=O)N[C@@H](CCC(N)=O)C(=O)N[C@@H](CCC(=O)O)C(=O)NCC(=O)NCC(=O)NCC(=O)N[C@@H](CO)C(=O)NCC(=O)NCC(=O)NCC(=O)N[C@@H](CSSC[C@H](NC(=O)CNC(=O)CNC(=O)CNC(=O)[C@H](CO)NC(=O)CNC(=O)CNC(=O)CNC(=O)[C@H](CCC(=O)O)NC(=O)[C@H](CCC(N)=O)NC(=O)[C@H](CC(C)C)NC(=O)[C@H](CC(=O)O)NC(=O)[C@@H](NC(=O)[C@H](CC(C)C)NC(=O)[C@H](CO)NC(=O)[C@H](CCCCN)NC(=O)[C@H](CC(N)=O)NC(=O)[C@H](CC(C)C)NC(=O)[C@H](CCC(=O)O)NC(=O)[C@H](CCCCN)NC(=O)[C@H](C)NC(=O)[C@@H](NC(=O)[C@H](CCCCN)NC(=O)[C@H](CC(N)=O)NC(=O)[C@H](CC(C)C)NC(=O)[C@H](CCCNC(=N)N)NC(=O)[C@H](CCC(=O)O)NC(=O)[C@@H](NC(=O)[C@H](CCC(=O)O)NC(=O)[C@H](CCCCN)NC(=O)[C@H](CCC(N)=O)NC(=O)[C@@H](NC(=O)[C@H](CCC(=O)O)NC(=O)[C@@H](NC(=O)[C@@H](NC(=O)[C@H](CO)NC(=O)[C@H](C)NC(=O)[C@H](CC(N)=O)NC(=O)[C@@H](NC(=O)CNC(=O)[C@H](CO)NC(=O)[C@@H](NC(C)=O)[C@@H](C)CC)[C@@H](C)CC)C(C)C)C(C)C)[C@@H](C)CC)[C@@H](C)CC)C(C)C)[C@@H](C)CC)C(N)=O)C(N)=O)[C@@H](C)CC)C(C)C)[C@@H](C)CC)[C@@H](C)CC)C(C)C)C(C)C)[C@@H](C)CC", "organism": "SARS-CoV-2 Wuhan", "test": "viral replication", "system": "VeroE6/TMPRSS2 cells", "how to read": "relative to: corresponding monomer", "endpoint": "fold change IC50 vs corresponding monomer", "value": 0.324}
{"SMILES": "CN[C@@H]1[C@H](O)[C@H](NC)[C@H]2O[C@]3(O)[C@H](O[C@@H]2[C@H]1O)O[C@H](C)C[C@@]3(O)CNCc1ccc(Cl)cc1", "organism": "Legionella pneumophila", "system": "ATCC 33153", "conditions": "40 µg per disc, 48 h", "endpoint": "inhibition zone diameter", "value": "21 to 22 mm"}
{"SMILES": "CC[C@@H](C)[C@@H](NC(=O)[C@@H](CCCCN)NC(=O)[C@@H](CCCCN)NC(=O)[C@@H](CC(C)C)NC(=O)[C@@H](Cc1c[nH]c2ccccc12)NC(=O)CN)C(=O)NCC(=O)N[C@H](CCCCN)C(=O)N[C@H](CCCCN)C(=O)N[C@@H](C(=O)N[C@H](CCC(=O)O)C(=O)N[C@H](CCCNC(=N)N)C(=O)N[C@@H](C(=O)NCC(=O)N[C@H](CCC(N)=O)C(=O)N[C@H](Cc1c[nH]cn1)C(=O)N[C@@H](C(=O)N[C@H](CCCNC(=N)N)C(=O)N[C@H](CC(=O)O)C(=O)N[C@H](C)C(=O)N[C@@H](C(=O)N[C@@H](C(=O)N[C@H](CCC(N)=O)C(=O)N[C@@H](C(=O)N[C@@H](C(=O)NCC(=O)N[C@@H](C(=O)N[C@H](C)C(=O)N[C@H](CCC(N)=O)C(=O)N[C@H](CCC(N)=O)C(=O)N[C@H](C)C(=O)N[C@H](C)C(=O)N[C@H](CC(N)=O)C(=O)N[C@@H](C(=O)N[C@H](C)C(=O)N[C@H](C)C(=O)N[C@@H](C(=O)N[C@H](CC(C)C)C(=O)N[C@H](CCCCN)C(N)=O)[C@H](C)O)C(C)C)C(C)C)[C@H](C)CC)[C@H](C)O)[C@H](C)CC)[C@H](C)O)[C@H](C)O)C(C)C)[C@H](C)CC", "organism": "Escherichia coli", "system": "isolate RKI 6 A-6, CAMHB", "endpoint": "MIC", "value": "> 1020 µg/mL"}
{"SMILES": "CC(=O)c1ccc2c(c1)N(CCCN(C)C)c1ccccc1S2", "organism": "SARS coronavirus", "system": "Vero 76, Urbani", "endpoint": "EC90", "value": "21.5 ± 14.6 µM"}
{"SMILES": "Cc1cc(C)c(SCC2OC(OC3C(N)CC(N)C(OC4OC(CN)C(O)CC4N)C3O)C(O)C(N)C2O)c(C)c1 (stereo not shown)", "organism": "Bacillus anthracis", "system": "Sterne 34F2", "endpoint": "MIC", "value": "18.8 µg/mL"}
{"SMILES": "O=C(C=Cc1ccc(O)c(O)c1)OC1CC(O)(C(=O)O)CC(OC(=O)C=Cc2ccc(O)c(O)c2)C1O (stereo not shown)", "organism": "Severe acute respiratory syndrome coronavirus 2", "test": "cytopathic effect, inhibitor", "system": "Vero C1008", "conditions": "50 µM", "endpoint": "inhibition", "value": "0%"}
{"SMILES": "CN[C@@H]1[C@H](O)[C@H](NC)[C@H]2O[C@]3(O)[C@H](O[C@@H]2[C@H]1O)O[C@H](C)C[C@H]3NC(=O)Cc1ccccc1", "organism": "Bacillus anthracis", "test": "microbial growth", "system": "STERNE34F2", "endpoint": "MIC", "value": "100 µg/mL"}
{"SMILES": "[O-][N+]1=C(c2ccccc2)C2=NCCN2c2ccccc21", "organism": "Clostridium butyricum", "endpoint": "MIC", "value": "≤ 0.06 µg/mL"}
{"SMILES": "COC(=O)c1ncn(C2CC(O)C(CO)O2)c1C(=O)OC (stereo not shown)", "organism": "Mammarenavirus lassaense", "test": "viral replication", "system": "Vero", "conditions": "48 h", "endpoint": "IC90", "value": "48 µg/mL"}
{"SMILES": "O=[N+]([O-])c1ccc(-n2nc(-c3ccc(F)cc3)cc2-c2ccc(F)cc2)c([N+](=O)[O-])c1", "organism": "Japanese encephalitis virus", "test": "plaque", "system": "Neuro2a, SA14-14-2", "conditions": "15 µM, 72 h, co-treatment", "endpoint": "viral particle reduction", "value": "~82%"}
{"SMILES": "CN1CCN(C(=O)N[C@@H](Cc2ccccc2)C(=O)N[C@H](/C=C/S(=O)(=O)c2ccccc2)CCc2ccccc2)CC1", "organism": "Severe acute respiratory syndrome coronavirus", "test": "viral replication", "system": "Urbani and Toronto-2", "endpoint": "IC50", "value": "0.05 to 0.52 µM"}
{"SMILES": "Cc1ccc(NS(=O)(=O)c2c(C(=O)N3CCCCCC3)c(C)n(C)c2C)c(Cl)c1", "organism": "Vaccinia virus", "test": "viral infection", "system": "HaCaT", "conditions": "0.137 µM, 36 h", "how to read": "relative to: untreated", "endpoint": "infection", "value": "78.3% and 82% and 81.4%"}
{"SMILES": "NNC(=O)c1ncn(C2OC(CO)C(O)C2O)c1C(=O)NN (stereo not shown)", "organism": "Mammarenavirus lassaense", "test": "viral replication", "system": "Vero", "conditions": "48 h", "endpoint": "IC90", "value": "> 50 µg/mL"}
{"SMILES": "COc1ccc(C2=[N+]([O-])c3ccccc3N3CCN=C23)cc1", "organism": "Clostridium perfringens", "endpoint": "MIC", "value": "0.25 to 1 µg/mL"}
{"SMILES": "O=S(=O)(O)c1c2ccccc2c(-c2c3nc(c(-c4c5ccccc5c(S(=O)(=O)O)c5ccccc45)c4ccc([nH]4)c(-c4c5ccccc5c(S(=O)(=O)O)c5ccccc45)c4nc(c(-c5c6ccccc6c(S(=O)(=O)O)c6ccccc56)c5ccc2[nH]5)C=C4)C=C3)c2ccccc12", "organism": "vaccinia virus", "system": "WR", "conditions": "50 µg/mL, 16 h", "endpoint": "virus titre", "value": "750000 PFU/mL"}
{"SMILES": "O=[N+]([O-])c1ccc(C2=[N+]([O-])c3ccccc3N3CCCN=C23)cc1", "organism": "Clostridium perfringens", "endpoint": "MIC90", "value": "2 µg/mL"}
{"SMILES": "O=[N+]([O-])c1ccc(-n2nc(-c3ccccc3)cc2-c2ccc(F)cc2)c([N+](=O)[O-])c1", "organism": "Japanese encephalitis virus", "test": "western blot", "system": "Neuro2a", "conditions": "15 µM, 72 h, post-treatment", "endpoint": "NS1 protein reduction", "value": "~78%"}
{"note": "A few entries again:"}
{"SMILES": "O=C(C=Cc1ccc(O)c(O)c1)OC1CC(O)(C(=O)O)CC(OC(=O)C=Cc2ccc(O)c(O)c2)C1O (stereo not shown)", "organism": "Severe acute respiratory syndrome coronavirus 2", "test": "cytopathic effect, inhibitor", "system": "Vero C1008", "conditions": "50 µM", "endpoint": "inhibition", "value": "0%"}
{"SMILES": "CN[C@@H]1[C@H](O)[C@H](NC)[C@H]2O[C@]3(O)[C@H](O[C@@H]2[C@H]1O)O[C@H](C)C[C@H]3NC(=O)Cc1ccccc1", "organism": "Bacillus anthracis", "test": "microbial growth", "system": "STERNE34F2", "endpoint": "MIC", "value": "100 µg/mL"}
